Measurements from different studies.
Each numbered part is a random draw from the data of one study; scales do not carry over between parts. Positions count from the first letter of the parent shown.
Sequence of UniProt Q8NEV4 (whole entry, looked up): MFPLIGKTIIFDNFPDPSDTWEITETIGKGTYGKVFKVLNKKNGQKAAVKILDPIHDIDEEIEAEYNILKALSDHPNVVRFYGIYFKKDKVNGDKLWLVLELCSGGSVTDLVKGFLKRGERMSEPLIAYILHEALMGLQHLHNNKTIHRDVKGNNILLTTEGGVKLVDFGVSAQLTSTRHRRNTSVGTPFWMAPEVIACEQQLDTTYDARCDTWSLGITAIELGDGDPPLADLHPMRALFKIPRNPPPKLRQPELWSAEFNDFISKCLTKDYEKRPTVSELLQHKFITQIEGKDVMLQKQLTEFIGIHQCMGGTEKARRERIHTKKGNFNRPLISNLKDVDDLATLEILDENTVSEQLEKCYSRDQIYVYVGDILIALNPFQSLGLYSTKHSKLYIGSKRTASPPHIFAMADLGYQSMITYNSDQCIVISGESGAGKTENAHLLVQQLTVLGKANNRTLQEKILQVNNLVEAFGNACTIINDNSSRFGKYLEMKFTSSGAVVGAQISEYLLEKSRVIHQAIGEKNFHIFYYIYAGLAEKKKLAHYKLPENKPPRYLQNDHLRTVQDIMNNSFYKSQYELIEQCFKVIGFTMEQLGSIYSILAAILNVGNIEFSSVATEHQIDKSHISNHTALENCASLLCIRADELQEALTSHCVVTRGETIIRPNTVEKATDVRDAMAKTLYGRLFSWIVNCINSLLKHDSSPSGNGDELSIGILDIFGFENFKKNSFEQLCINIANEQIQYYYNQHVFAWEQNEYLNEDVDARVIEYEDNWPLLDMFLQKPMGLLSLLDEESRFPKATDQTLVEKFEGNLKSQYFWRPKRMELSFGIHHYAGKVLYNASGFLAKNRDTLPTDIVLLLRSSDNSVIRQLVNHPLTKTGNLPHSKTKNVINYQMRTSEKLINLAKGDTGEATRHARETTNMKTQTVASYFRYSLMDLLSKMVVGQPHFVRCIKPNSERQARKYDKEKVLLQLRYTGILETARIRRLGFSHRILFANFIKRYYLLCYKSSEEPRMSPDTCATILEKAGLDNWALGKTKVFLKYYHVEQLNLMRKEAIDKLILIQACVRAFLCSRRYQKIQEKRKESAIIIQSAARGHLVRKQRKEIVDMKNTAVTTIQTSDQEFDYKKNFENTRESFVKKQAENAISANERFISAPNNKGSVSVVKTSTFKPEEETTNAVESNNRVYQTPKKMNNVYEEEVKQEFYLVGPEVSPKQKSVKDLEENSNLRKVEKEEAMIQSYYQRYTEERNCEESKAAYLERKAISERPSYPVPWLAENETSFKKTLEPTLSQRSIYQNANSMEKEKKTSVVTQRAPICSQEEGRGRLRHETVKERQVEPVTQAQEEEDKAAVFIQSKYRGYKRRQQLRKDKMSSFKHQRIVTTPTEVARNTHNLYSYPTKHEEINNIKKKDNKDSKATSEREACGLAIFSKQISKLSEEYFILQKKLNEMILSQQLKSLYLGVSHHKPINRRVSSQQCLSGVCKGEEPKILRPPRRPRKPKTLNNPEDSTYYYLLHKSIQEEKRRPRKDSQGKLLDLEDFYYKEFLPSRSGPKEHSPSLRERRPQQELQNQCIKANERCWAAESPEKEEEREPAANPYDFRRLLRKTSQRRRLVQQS
Sequence of UniProt Q9BXA7 (whole entry, looked up): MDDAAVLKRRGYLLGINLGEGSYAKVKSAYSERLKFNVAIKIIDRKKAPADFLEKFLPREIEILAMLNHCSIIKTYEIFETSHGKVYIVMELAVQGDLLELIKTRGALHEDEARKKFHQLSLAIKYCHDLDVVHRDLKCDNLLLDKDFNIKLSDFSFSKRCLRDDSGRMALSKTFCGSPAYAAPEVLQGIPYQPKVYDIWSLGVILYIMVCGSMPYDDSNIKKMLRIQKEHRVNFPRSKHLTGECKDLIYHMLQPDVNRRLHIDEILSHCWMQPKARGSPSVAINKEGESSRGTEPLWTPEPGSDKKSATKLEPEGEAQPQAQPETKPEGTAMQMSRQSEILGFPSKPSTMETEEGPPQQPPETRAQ
Sequence of UniProt Q96D53 (whole entry, looked up): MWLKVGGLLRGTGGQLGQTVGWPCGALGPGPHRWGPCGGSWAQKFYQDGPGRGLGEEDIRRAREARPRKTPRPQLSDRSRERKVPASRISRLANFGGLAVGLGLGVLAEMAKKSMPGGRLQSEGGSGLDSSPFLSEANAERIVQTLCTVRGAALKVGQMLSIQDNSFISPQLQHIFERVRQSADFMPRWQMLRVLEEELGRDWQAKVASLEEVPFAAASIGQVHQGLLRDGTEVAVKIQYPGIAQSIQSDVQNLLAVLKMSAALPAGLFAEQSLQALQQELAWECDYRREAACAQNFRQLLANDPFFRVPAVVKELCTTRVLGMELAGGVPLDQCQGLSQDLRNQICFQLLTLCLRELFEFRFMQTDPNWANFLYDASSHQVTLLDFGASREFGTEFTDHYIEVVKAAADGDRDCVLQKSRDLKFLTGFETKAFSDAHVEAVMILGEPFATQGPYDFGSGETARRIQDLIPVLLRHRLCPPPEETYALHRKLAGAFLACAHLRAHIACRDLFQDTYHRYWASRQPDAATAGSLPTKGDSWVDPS
Sequence of UniProt Q08881 (whole entry, looked up): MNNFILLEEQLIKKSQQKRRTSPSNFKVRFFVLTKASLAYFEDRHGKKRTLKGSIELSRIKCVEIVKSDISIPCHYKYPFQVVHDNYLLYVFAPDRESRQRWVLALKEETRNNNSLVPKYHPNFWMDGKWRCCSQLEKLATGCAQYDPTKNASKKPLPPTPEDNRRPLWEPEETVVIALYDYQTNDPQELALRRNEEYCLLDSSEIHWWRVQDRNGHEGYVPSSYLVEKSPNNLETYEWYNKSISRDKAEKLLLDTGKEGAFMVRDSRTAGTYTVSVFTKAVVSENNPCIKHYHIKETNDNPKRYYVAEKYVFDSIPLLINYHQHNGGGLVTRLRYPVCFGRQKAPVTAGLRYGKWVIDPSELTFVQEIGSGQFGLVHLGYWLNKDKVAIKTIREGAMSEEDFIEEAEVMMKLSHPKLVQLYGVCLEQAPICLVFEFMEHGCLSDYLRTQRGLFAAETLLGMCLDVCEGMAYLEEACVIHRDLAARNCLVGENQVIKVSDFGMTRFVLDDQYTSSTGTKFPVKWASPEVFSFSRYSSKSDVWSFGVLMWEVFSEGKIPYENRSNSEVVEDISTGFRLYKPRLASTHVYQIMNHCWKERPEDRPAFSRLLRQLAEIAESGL
Sequence of UniProt Q02779 (whole entry, looked up): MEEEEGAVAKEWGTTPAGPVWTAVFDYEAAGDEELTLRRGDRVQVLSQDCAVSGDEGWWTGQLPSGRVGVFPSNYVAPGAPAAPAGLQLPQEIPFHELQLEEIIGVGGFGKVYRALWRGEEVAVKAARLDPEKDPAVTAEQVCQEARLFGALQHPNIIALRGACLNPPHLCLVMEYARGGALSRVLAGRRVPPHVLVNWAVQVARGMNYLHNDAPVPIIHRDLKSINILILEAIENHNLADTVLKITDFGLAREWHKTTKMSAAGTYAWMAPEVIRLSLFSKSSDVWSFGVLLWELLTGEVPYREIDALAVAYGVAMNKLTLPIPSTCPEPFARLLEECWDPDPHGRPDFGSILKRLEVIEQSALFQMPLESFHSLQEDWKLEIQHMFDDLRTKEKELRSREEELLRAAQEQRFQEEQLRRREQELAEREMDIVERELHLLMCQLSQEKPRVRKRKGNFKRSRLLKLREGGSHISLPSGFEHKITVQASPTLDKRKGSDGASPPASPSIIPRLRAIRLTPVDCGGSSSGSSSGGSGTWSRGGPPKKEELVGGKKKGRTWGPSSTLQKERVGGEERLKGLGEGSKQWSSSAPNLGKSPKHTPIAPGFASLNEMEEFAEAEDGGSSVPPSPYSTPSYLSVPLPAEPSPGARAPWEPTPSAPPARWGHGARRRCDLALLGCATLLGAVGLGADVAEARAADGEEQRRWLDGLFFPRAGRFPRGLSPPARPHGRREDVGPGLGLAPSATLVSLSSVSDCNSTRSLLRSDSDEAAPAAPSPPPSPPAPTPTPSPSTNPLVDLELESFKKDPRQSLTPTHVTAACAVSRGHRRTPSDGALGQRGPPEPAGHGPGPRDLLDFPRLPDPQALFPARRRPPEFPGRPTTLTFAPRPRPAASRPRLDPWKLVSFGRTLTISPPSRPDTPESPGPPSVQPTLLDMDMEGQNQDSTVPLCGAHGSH
Sequence of UniProt P54646 (whole entry, looked up): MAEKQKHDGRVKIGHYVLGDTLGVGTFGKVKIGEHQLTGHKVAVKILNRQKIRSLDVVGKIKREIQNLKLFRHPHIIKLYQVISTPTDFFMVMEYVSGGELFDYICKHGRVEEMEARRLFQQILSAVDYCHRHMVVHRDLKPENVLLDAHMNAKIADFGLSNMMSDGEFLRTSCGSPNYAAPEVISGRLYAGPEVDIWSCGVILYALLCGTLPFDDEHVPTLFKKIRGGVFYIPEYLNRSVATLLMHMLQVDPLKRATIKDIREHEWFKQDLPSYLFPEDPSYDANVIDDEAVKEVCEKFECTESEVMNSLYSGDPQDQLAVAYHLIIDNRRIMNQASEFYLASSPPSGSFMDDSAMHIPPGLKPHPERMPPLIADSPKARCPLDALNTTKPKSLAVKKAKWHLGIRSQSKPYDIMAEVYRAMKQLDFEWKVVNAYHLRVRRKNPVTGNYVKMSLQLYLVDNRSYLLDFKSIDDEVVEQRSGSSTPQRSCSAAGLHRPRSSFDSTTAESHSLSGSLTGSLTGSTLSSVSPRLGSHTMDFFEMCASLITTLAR
Sequence of UniProt Q9HC98 (whole entry, looked up): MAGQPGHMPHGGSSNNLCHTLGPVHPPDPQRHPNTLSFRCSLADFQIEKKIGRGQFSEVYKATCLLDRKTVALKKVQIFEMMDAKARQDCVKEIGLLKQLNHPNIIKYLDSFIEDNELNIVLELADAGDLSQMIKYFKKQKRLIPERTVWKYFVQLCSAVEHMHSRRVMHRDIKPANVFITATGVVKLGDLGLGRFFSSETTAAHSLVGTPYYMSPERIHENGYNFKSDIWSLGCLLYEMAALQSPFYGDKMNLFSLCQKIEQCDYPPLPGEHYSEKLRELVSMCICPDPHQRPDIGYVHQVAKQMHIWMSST

Block 1
Target: FOSB, bZIP domain (human)
Method: DHFR protein complementation
Sample: yeast
Notes: single substitutions, most at no-binding floor
Baseline: wild-type JUN-FOS pair
Direction: higher = stronger binding
Starting sequence: JUN, bZIP domain (human); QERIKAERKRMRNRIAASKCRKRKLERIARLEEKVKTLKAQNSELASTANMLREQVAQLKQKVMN; partner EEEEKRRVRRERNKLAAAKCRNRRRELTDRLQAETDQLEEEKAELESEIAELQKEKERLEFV
Change | binding fitness [natural log]
E54S | -0.208
A29I | -0.187
A29C | -0.373
K39T | -0.294
S47T | -0.127
R53V | -0.828
A46F | -0.336
A29T | -0.136

Block 2
Target: CCNA1, cyclin fold, Cln2 fusion (human)
Method: yeast growth competition, sequencing
Sample: yeast
Notes: weak parent motif
Baseline: not given
Direction: higher = stronger binding
Starting sequence: PKMYT1 docking peptide (human); SFEPRNLLSLFED; partner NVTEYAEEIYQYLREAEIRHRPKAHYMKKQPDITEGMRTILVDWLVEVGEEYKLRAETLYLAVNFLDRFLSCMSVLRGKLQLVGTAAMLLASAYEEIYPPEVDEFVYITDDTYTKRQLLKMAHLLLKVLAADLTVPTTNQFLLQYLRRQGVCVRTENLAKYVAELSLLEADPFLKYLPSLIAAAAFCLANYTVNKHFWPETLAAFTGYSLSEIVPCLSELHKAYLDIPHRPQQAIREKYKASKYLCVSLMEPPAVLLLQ
Change | normalised enrichment score
F2V | -0.19
L7Q | 0.285
L7S | 0.21
L10F | 0.0831
S1F | 0.104
P4C | 0.13
D13H | -0.0799
L8K | 0.311

Block 3
SMILES: CO[C@H]1C[C@@H]2CC[C@@H](C)[C@@](O)(O2)C(=O)C(=O)N2CCCC[C@H]2C(=O)O[C@H]([C@H](C)C[C@@H]2CC[C@@H](O)[C@H](OC)C2)CC(=O)[C@H](C)/C=C(\C)[C@@H](O)[C@@H](OC)C(=O)[C@H](C)C[C@H](C)/C=C/C=C/C=C/1C
Observed: enzyme activity
Action: inhibitor
Tested at: 0.5 µM
Baseline: control
target | remaining activity [%]
MAP3K5 (Homo sapiens, UniProt Q99683) | 107
NEK6 (Homo sapiens, UniProt Q9HC98) | 97.7
NEK1 (Homo sapiens, UniProt Q96PY6) | 104

Block 4
SMILES: CC(=O)Nc1c(C(C)=O)c(=O)n(C)c2nc(-c3ccc(Cl)cc3Cl)c(-c3ccc(Cl)cc3)cc12
Method: competition with immobilised ligand
Tested at: 1 µM
target | observed | remaining binding [%]
PRKAA2 (Homo sapiens, UniProt P54646) | cell-free assay | 100
MAP3K9 (Homo sapiens, UniProt P80192) | cell-free assay | 100
MAPK10 (Homo sapiens, UniProt P53779) | cell-free assay | 100
Myosin-IIIa (MYO3A, Homo sapiens, UniProt Q8NEV4) | cell-free assay | 100
TSSK1B (Homo sapiens, UniProt Q9BXA7) | cell-free assay | 100
ITK (Homo sapiens, UniProt Q08881) | cell-free assay | 100
TGFBR2 (Homo sapiens, UniProt P37173) | cell-free assay | 100
MTOR (Homo sapiens, UniProt P42345) | cell-free assay | 100
MAP3K10 (Homo sapiens, UniProt Q02779) | cell-free assay | 100
DYRK1B (Homo sapiens, UniProt Q9Y463) | binding | 35
EGFR (Homo sapiens, UniProt P00533) | cell-free assay | 100
COQ8B (Homo sapiens, UniProt Q96D53) | cell-free assay | 100

For quick reference, copied from above (block 1):
Change | binding fitness [natural log]
R53V | -0.828
A29T | -0.136
A29C | -0.373
A46F | -0.336
